Assay results gathered from unrelated publications.
Numbered parts are unrelated; each lists some results of a single study.
Sequence of UniProt Q16566 (whole entry, looked up): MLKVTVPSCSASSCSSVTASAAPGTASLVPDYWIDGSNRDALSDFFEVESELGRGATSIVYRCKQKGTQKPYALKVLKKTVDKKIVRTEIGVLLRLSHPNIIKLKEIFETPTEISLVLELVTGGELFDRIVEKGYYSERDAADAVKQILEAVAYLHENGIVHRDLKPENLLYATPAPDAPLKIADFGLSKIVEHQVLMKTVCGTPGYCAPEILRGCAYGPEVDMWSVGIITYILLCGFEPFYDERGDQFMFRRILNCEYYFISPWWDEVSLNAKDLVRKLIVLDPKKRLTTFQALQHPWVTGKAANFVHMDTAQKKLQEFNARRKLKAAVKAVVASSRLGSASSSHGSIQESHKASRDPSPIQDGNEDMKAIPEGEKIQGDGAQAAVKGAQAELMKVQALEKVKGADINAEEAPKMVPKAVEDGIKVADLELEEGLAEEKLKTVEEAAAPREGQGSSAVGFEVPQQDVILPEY
Sequence of UniProt Q86Z02 (whole entry, looked up): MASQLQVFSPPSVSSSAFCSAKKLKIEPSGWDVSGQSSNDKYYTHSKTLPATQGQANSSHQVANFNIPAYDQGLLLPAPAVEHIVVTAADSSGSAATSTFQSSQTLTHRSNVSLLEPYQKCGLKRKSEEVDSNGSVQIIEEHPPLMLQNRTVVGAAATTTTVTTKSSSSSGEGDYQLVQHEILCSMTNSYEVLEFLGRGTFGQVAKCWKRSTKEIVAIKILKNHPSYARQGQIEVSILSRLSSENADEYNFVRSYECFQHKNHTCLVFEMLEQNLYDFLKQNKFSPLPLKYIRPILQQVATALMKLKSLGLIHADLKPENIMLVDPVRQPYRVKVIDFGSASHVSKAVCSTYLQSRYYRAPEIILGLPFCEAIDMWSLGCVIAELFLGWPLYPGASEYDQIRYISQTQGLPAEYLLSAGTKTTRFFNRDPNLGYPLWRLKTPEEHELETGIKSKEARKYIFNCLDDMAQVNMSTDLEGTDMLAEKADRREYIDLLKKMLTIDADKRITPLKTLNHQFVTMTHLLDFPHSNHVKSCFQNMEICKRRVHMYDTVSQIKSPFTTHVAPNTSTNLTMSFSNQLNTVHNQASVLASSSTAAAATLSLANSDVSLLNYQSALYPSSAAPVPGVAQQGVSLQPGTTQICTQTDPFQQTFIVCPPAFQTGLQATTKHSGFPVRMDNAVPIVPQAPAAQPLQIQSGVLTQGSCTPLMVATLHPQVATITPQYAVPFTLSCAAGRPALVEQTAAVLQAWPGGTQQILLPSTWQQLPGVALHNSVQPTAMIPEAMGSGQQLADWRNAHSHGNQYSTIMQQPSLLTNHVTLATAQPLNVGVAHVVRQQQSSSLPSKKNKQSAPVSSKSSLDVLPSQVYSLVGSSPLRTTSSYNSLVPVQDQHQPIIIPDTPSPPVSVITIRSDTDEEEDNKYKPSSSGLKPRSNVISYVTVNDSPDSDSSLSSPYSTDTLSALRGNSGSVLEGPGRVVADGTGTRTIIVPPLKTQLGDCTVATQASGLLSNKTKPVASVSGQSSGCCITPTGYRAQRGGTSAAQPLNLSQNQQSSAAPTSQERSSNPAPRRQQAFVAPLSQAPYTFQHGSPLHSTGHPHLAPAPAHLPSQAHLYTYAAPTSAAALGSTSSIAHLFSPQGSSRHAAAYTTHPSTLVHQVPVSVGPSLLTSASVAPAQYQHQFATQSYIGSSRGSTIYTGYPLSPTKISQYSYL
Sequence of UniProt P31751 (whole entry, looked up): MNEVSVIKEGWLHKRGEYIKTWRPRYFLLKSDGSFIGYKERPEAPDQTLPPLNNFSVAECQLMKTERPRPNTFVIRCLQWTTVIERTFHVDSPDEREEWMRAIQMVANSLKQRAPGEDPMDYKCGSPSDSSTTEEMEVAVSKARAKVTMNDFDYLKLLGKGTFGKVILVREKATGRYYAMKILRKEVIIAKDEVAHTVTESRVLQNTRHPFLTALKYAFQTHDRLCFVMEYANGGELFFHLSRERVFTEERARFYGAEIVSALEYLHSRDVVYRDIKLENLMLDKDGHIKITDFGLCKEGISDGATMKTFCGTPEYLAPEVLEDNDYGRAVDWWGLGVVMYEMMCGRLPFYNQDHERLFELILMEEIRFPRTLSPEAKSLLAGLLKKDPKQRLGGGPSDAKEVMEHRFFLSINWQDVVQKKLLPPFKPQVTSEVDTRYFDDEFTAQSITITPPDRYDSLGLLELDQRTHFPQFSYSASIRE
Sequence of UniProt P48729 (whole entry, looked up): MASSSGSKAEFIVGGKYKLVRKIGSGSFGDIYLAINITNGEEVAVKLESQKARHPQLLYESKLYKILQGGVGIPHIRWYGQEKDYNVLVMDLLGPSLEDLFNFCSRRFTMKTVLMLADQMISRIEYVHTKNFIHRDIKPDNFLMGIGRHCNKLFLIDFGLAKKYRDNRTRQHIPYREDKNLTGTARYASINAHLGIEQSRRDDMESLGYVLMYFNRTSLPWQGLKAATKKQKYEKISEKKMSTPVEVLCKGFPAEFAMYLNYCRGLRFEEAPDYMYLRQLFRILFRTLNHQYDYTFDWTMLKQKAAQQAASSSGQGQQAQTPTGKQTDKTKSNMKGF
Sequence of UniProt Q86UE8 (whole entry, looked up): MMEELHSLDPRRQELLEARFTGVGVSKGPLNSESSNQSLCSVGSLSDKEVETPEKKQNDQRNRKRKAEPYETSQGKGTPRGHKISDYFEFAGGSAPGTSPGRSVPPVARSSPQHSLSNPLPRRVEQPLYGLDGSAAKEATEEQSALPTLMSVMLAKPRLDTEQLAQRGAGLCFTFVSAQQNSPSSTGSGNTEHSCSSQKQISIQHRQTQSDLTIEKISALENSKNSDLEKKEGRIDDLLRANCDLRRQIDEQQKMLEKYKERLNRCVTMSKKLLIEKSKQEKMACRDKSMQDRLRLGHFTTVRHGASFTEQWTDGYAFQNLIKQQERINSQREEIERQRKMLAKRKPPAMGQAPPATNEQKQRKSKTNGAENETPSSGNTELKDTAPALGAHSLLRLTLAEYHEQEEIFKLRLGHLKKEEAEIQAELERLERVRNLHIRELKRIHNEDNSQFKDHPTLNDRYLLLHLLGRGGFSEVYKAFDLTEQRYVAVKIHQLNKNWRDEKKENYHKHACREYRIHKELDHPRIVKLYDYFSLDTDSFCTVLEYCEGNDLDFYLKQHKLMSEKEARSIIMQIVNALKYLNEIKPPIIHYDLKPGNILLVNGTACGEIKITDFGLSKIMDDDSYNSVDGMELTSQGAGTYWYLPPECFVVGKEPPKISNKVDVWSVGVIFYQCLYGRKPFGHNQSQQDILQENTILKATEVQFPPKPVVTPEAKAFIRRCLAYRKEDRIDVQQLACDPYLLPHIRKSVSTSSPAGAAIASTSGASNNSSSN
Sequence of UniProt P49841 (whole entry, looked up): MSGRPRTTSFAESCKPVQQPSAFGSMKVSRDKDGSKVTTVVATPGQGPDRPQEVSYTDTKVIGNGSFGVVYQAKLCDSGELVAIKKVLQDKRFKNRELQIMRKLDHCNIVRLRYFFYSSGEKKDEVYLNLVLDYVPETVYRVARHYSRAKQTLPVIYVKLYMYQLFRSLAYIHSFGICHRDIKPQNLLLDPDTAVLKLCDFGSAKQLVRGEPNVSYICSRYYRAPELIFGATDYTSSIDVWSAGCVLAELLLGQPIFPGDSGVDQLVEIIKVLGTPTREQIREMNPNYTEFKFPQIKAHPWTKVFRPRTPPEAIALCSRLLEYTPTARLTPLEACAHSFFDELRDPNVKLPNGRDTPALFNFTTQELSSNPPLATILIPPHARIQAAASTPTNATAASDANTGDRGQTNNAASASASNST
Sequence of UniProt P32298 (whole entry, looked up): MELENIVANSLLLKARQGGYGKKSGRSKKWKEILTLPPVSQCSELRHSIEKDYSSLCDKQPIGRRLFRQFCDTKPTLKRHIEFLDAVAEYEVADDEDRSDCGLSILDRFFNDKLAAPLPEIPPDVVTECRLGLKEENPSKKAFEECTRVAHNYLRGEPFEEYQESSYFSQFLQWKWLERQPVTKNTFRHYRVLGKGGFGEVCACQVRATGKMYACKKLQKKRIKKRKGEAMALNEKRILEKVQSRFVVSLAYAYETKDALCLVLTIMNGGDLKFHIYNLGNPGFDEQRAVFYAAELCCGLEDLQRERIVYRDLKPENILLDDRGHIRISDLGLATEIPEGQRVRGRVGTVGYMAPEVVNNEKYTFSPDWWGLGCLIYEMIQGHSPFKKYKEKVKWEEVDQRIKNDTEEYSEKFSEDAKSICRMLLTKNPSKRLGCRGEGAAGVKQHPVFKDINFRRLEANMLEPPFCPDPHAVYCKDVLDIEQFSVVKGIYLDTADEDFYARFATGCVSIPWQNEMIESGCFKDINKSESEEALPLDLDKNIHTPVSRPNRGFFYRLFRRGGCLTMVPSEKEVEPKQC
Sequence of UniProt O75676 (whole entry, looked up): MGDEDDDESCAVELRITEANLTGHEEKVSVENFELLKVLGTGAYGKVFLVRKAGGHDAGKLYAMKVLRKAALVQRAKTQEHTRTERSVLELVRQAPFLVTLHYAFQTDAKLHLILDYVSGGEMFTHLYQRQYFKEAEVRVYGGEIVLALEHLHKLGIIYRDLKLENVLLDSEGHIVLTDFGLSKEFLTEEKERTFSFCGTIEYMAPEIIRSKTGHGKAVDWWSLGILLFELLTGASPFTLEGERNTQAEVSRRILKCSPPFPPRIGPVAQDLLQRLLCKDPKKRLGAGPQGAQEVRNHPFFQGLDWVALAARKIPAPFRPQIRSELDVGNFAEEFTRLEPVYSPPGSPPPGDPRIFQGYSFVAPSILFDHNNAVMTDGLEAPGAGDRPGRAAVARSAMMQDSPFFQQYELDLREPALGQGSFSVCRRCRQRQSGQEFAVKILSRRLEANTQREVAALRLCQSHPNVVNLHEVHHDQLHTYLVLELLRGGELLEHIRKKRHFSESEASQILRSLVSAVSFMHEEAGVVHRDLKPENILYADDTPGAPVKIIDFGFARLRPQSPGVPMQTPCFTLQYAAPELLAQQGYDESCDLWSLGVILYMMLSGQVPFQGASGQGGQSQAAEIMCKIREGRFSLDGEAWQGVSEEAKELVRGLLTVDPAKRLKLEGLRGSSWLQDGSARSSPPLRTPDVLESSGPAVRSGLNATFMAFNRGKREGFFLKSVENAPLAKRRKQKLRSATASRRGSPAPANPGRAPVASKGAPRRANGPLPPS

Block 1 — Compound: O=C(Nc1ccccc1)Nc1cccc(Oc2ccc3nccn3n2)c1; technique: competitive binding panel; tested at: 1 µM; relative to: vehicle; endpoint: remaining binding
EGFR (Homo sapiens, UniProt P00533): 67%
ALK (Homo sapiens, UniProt Q9UM73): 83%
PAK6 (Homo sapiens, UniProt Q9NQU5): 100%
BRSK2 (Homo sapiens, UniProt Q8IWQ3): 100%
GSK3B (Homo sapiens, UniProt P49841): 100%
CSNK1A1 (Homo sapiens, UniProt P48729): 100%
HIPK1 (Homo sapiens, UniProt Q86Z02): 100%
TRPM6 (Homo sapiens, UniProt Q9BX84): 100%

Block 2 — effect on: acetyl-histone H4 peptide binding; technique: AlphaScreen displacement; tested at: 50 µM; endpoint: inhibition
Target: Bromodomain-containing protein 4, BD1 (BRD4, Homo sapiens, UniProt O60885)
Br.Br.CCOc1ccc(Nc2nc(-c3c(C)nc4ccccn34)cs2)cc1: 85.1%
N#CC(=Cc1ccco1)c1nc2ccccc2s1: 30.4%
O=C(O)CCCC(=O)NNC(=O)c1ccc(Cl)cc1: -4.45%
O=S(=O)(c1cccc2c(I)cccc12)N1CCCNCC1: 26.8%
CCOC(=O)c1ccc(NC(=O)Nc2ccc(Cl)c(Cl)c2)cc1: -10.3%
CC(Cl)C(=O)C(C#N)=C1Nc2ccccc2S1 (stereo not drawn): 15.1%
OC1CCCN(Cc2c(-c3ccco3)[nH]c3ncccc23)C1 (stereo not drawn): -0.2%

Block 3 — species: mouse; sample: microsomes or S9; tested at: 2 µM; time: 0.5 h; endpoint: remaining compound
c1ccc(-c2ncc(-c3nc4ccncc4[nH]3)s2)nc1: 5.88%
Cc1cc(N2CCCCC2)nc(N2CCN(S(=O)(=O)c3ccc4cccc5c4c3CC5)CC2)n1: 0.676%
CCCC(=O)Nn1c(=S)[nH]c2cc(C)[nH]c2c1=O: 65.1%
CC(C)(C)NC(=O)Cn1nc2c(-c3nc(-c4cccc(F)c4)no3)cccn2c1=O: 80.8%
O=C(CN1C(=O)CNC1=O)N1C[C@H]2CC=CC[C@H]2C1: 88%
CCc1ccc(-c2nc3sc(N4CCN(C(=O)c5ccnn5C)CC4)nn3c2NC(C)(C)C)cc1: 45.4%

Block 4 — Structure (SMILES): N#CC(=C(N)Sc1ccc(N)cc1)c1ccccc1C(F)(F)F; effect on: enzyme activity; mode: inhibitor; tested at: 0.5 µM; relative to: control; endpoint: remaining activity
DCLK2 (Homo sapiens, UniProt Q8N568): 99.1%
MARK4 (Homo sapiens, UniProt Q96L34): 101%
CAMK4 (Homo sapiens, UniProt Q16566): 110%
Cyclin-dependent kinase 1, with cyclin A (CDK1, Homo sapiens, UniProt P06493): 91.2%
MARK2 (Homo sapiens, UniProt Q7KZI7): 124%
TLK2 (Homo sapiens, UniProt Q86UE8): 92.5%
RPS6KA4 (Homo sapiens, UniProt O75676): 112%
PRKG2 (Homo sapiens, UniProt Q13237): 113%
CLK4 (Homo sapiens, UniProt Q9HAZ1): 93.4%
NEK3 (Homo sapiens, UniProt P51956): 99.6%
KDR (Homo sapiens, UniProt P35968): 94.4%
MAPK11 (Homo sapiens, UniProt Q15759): 112%
GRK4 (Homo sapiens, UniProt P32298): 98.4%
TXK (Homo sapiens, UniProt P42681): 98.7%
AKT2 (Homo sapiens, UniProt P31751): 102%

A few entries again (block 4):
CAMK4 (Homo sapiens, UniProt Q16566): 110%
Cyclin-dependent kinase 1, with cyclin A (CDK1, Homo sapiens, UniProt P06493): 91.2%
MARK2 (Homo sapiens, UniProt Q7KZI7): 124%
TLK2 (Homo sapiens, UniProt Q86UE8): 92.5%
RPS6KA4 (Homo sapiens, UniProt O75676): 112%
